Measured values gathered from unrelated publications.
Compare with care: the assays were run in different laboratories. “And” joins repeats or separate records; there may be more than shown. ± gives the spread as reported.
STING1 H232R: Stimulator of interferon genes protein (STING1, Homo sapiens, UniProt Q86WV6, H232R)
Sequence of UniProt Q86WV6 (whole entry, unmodified, looked up): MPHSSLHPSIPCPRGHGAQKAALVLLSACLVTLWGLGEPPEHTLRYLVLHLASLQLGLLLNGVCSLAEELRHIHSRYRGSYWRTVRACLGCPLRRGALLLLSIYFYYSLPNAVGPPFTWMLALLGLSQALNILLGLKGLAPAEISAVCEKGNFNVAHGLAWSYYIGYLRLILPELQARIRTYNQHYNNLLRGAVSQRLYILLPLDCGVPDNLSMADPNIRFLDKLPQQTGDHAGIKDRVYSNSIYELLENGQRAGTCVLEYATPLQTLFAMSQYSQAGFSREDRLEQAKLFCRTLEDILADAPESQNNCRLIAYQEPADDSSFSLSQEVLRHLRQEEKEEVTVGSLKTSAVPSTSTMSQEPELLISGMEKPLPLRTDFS

SMILES | target or system | assay | system | conditions | scale | endpoint | result
N#C[C@@H]1CC(F)(F)CN1C(=O)CNC(=O)c1ccnc2ccc(OCCCN3CCN(C(=O)CN4CCN(CC(N)=O)CCN(CC(N)=O)CCN(CC(N)=O)CC4)CC3)cc12 | – | iTLC | human serum | 72 h, 37 °C, lead-203-labelled | – | intact complex | 100%
CC(C)C[C@H](NC(=O)[C@H](Cc1ccc(O)cc1)NC(=O)[C@@H](CCCNC(=N)N)NC(=O)[C@@H](CO)NC(=O)[C@H](Cc1ccccc1)NC(=O)[C@H](CC1CCCCC1)NC(=O)[C@H](CC(=O)O)NC(=O)CN1CCN(CC(=O)O)CCN(CC(=O)O)CCN(CC(=O)O)CC1)C(=O)N[C@@H](Cc1c[nH]c2ccccc12)C(=O)N[C@@H](CO)C(=O)O [copper-64 labelled] | – | – | human, muscle | concentration not given, 1 h | – | activity concentration | 1110 Bq/mL and 1100 Bq/mL and 1320 Bq/mL and 1560 Bq/mL and 929 Bq/mL and 1290 Bq/mL
CC(C)C[C@@H](NC(=O)[C@@H](CC(C)C)NC(=O)[C@@H](CC(=O)O)NC(=O)[C@@H](CC(C)C)NC(=O)[C@@H](CC(C)C)NC(=O)[C@@H](CC(C)C)NC(=O)[C@H](NC(=O)[C@@H](CC(=O)O)NC(=O)[C@H](NC(=O)[C@H]1CCCN1C(=O)[C@@H](Cc1ccccc1)NC(=O)[C@@H](CC(C)C)NC(=O)[C@@H](CC(C)C)NC(=O)[C@@H](CC(=O)O)NC(=O)[C@@H](CC(C)C)NC(=O)[C@@H](Cc1ccc(O)cc1)NC(=O)[C@@H](C)NC(=O)[C@@H](CCCNC(=N)N)NC(=O)[C@@H](Cc1c[nH]c2ccccc12)NC(=O)[C@H]1CCCN1C(=O)[C@@H](CC(N)=O)NC(=O)[C@@H](CCC(N)=O)NC(=O)[C@@H](CC(=O)O)NC(=O)[C@@H](CC(=O)O)NC(=O)[C@@H](CSC1CC(=O)N(CCNC(=O)CN2CCN(CC(=O)O)CCN(CC(=O)O)CC2)C1=O)NC(=O)[C@@H](C)N)[C@H](C)O)[C@H](C)O)C(=O)N[C@H](Cc1c[nH]c2ccccc12)C(=O)O (stereo partly drawn) [copper-64 labelled] | – | – | C57BL/6 mice, female, B16-F10 melanoma, tumor | intravenous, 4 h | – | tissue uptake | 9.29 %ID/g
CCCC[C@H](NC(=O)COCCOCCNC(=O)CN1CCN(CC(=O)O)CCN(CC(=O)O)CC1)C(=O)N[C@H]1CC(=O)NCCCC[C@@H](C(N)=O)NC(=O)[C@H](Cc2c[nH]c3ccccc23)NC(=O)[C@H](CCCNC(=N)N)NC(=O)[C@@H](Cc2ccccc2)NC(=O)[C@H](Cc2c[nH]cn2)NC1=O [technetium-99m labelled] | – | – | C57 mouse, skin | intravenous, 0.037 MBq, 4 h | – | tissue uptake | 0.15 ± 0.08 %ID/g
COC1CN([C@H]2CC[C@H]([C@@]3(C)Oc4c(Cl)cc(C(=O)NCc5c(SC)cc(C)[nH]c5=O)c(C)c4O3)CC2)C1 | – | RNA-seq, measured: PLD2 | human, whole blood | dose not given, 24 h | relative to: pretreatment baseline | log2 fold change | 1.92
Cc1ncsc1-c1ccc(C(C)NC(=O)C2CC(O)CN2C(=O)C(NC(=O)CCCCCCCCCCN2CCCC(Nc3ncc(Cl)c(Nc4ccccc4S(=O)(=O)C(C)C)n3)C2)C(C)(C)C)cc1 (stereo not drawn) | 22Rv1 | RNA-seq, measured: S100PBP | – | concentration not given | relative to: DMSO | log2 fold change | -1.47
O=C(N[C@@H](CCNC(=O)c1ccc([N+](=O)[O-])o1)c1nc2ccccc2[nH]1)c1cc(-c2ccc(F)cc2F)on1 | STING1 H232R | reporter gene, inhibitor | THP1-Dual KI-hSTING-R232 | 24 h, 1 h preincubation, together with: diABZI 500 nM | – | EC50 | 5.3 µM
N#C[C@@H]1CC(F)(F)CN1C(=O)CNC(=O)c1ccnc2ccc(OCCCN3CCN(C(=S)Nc4ccc(C[C@H]5CN(Cc6ccccn6)CCN(Cc6ccccn6)CCN(Cc6ccccn6)CCN5Cc5ccccn5)cc4)CC3)cc12 | – | iTLC | human serum | 72 h, 37 °C, lead-203-labelled | – | intact complex | 100%
CC(C)C[C@H](NC(=O)[C@@H](CCCCNC(=O)[C@@H](Cc1ccccc1)NC(=O)CCCCCNC(=O)CN1CCN(CC(=O)O)CCN(CC(=O)O)CCN(CC(=O)O)CC1)NC(=O)[C@H](Cc1ccc(O)cc1)NC(=O)[C@H](CO)NC(=O)[C@H](Cc1c[nH]c2ccccc12)NC(=O)[C@H](Cc1c[nH]cn1)NC(=O)[C@@H]1CCC(=O)N1)C(=O)N[C@@H](CCCNC(=N)N)C(=O)N1CCC[C@H]1C(=O)NCC(N)=O [indium-111 labelled] | – | – | female athymic nude mice, bone | intravenous, 0.037 MBq, 1 h | – | tissue uptake | 0.07 ± 0.06 %ID/g
CCCC[C@H](NC(=O)CCCCCCCNC(=O)CN1CCN(CC(=O)O)CCN(CC(=O)O)CC1)C(=O)N[C@H]1CC(=O)NCCCC[C@@H](C(N)=O)NC(=O)[C@H](Cc2c[nH]c3ccccc23)NC(=O)[C@H](CCCNC(=N)N)NC(=O)[C@@H](Cc2ccccc2)NC(=O)[C@H](Cc2c[nH]cn2)NC1=O [technetium-99m labelled] | – | – | C57 mouse, pancreas | intravenous, 0.037 MBq, 2 h | – | tissue uptake | 0.03 ± 0.04 %ID/g
O=C(N[C@@H](CCNC(=O)c1ccc([N+](=O)[O-])o1)c1nc2ccccc2[nH]1)c1ccc(-n2cnnc2)cc1 | STING1 H232R | reporter gene, inhibitor | THP1-Dual KI-hSTING-R232 | 24 h, 1 h preincubation, together with: diABZI 500 nM | – | EC50 | > 40 µM
C=C1CC[C@H](OCCCNC(=O)CCOCCOCCOCCOCCOCCOCCOCCOCCOCCOCCOCCOCCOCCOCCOCCOCCOCCOCCOCCOCCOCCOCCOCCOCCOCCOCCOCCOCCOCCOCCOCCOCCOCCOCCOCCOCCNC(=O)CCN2C(=O)CC(SC[C@H](NC(=O)[C@H](Cc3ccccc3)NC(=O)[C@H](CC(N)=O)NC(=O)[C@H](Cc3c[nH]cn3)NC(=O)[C@@H](NC(=O)[C@H](CC(=O)O)NC(=O)[C@H](CCC(N)=O)NC(=O)[C@H](CC(C)C)NC(=O)[C@H](CCCCN)NC(=O)[C@H](CCCCN)NC(=O)[C@H](CCCNC(=N)N)NC(=O)[C@H](CC(C)C)NC(=O)[C@H](Cc3c[nH]c4ccccc34)NC(=O)[C@H](CCC(=O)O)NC(=O)[C@@H](NC(=O)[C@H](CCCNC(=N)N)NC(=O)[C@H](CCC(=O)O)NC(=O)[C@H](CCSC)NC(=O)[C@H](CO)NC(=O)[C@H](CC(N)=O)NC(=O)[C@H](CC(C)C)NC(=O)[C@H](Cc3c[nH]cn3)NC(=O)[C@H](CCCCN)NC(=O)CNC(=O)[C@H](CC(C)C)NC(=O)[C@H](CC(N)=O)NC(=O)[C@H](Cc3c[nH]cn3)NC(=O)[C@H](CCSC)NC(=O)[C@H](CC(C)C)NC(=O)[C@H](CCC(N)=O)NC(=O)[C@@H](NC(=O)[C@H](CCC(=O)O)NC(=O)[C@H](CO)NC(=O)[C@@H](NC(=O)[C@@H](N)CO)C(C)C)[C@@H](C)CC)C(C)C)C(C)C)C(=O)O)C2=O)C/C1=C/C=C1\CCC[C@]2(C)[C@@H]([C@H](C)CCCC(C)(C)O)CC[C@@H]12 (stereo partly drawn) | – | – | rat, plasma | subcutaneous, 30 µg/kg, single dose | – | bioavailability | 12.9%

For quick reference, copied from above:
SMILES | target or system | assay | system | conditions | scale | endpoint | result
CC(C)C[C@H](NC(=O)[C@H](Cc1ccc(O)cc1)NC(=O)[C@@H](CCCNC(=N)N)NC(=O)[C@@H](CO)NC(=O)[C@H](Cc1ccccc1)NC(=O)[C@H](CC1CCCCC1)NC(=O)[C@H](CC(=O)O)NC(=O)CN1CCN(CC(=O)O)CCN(CC(=O)O)CCN(CC(=O)O)CC1)C(=O)N[C@@H](Cc1c[nH]c2ccccc12)C(=O)N[C@@H](CO)C(=O)O [copper-64 labelled] | – | – | human, muscle | concentration not given, 1 h | – | activity concentration | 1110 Bq/mL and 1100 Bq/mL and 1320 Bq/mL and 1560 Bq/mL and 929 Bq/mL and 1290 Bq/mL
COC1CN([C@H]2CC[C@H]([C@@]3(C)Oc4c(Cl)cc(C(=O)NCc5c(SC)cc(C)[nH]c5=O)c(C)c4O3)CC2)C1 | – | RNA-seq, measured: PLD2 | human, whole blood | dose not given, 24 h | relative to: pretreatment baseline | log2 fold change | 1.92
